Published values collected from several papers.
Each numbered part is a random draw from the data of one study; scales do not carry over between parts.

Block 1 — method: Spec-seq; form: double-stranded DNA, one strand shown; medium: in vitro; concentration: not given; notes: whole probe, mean of replicates; relative to: not given; reading: lower = stronger binding
Target: POU domain, class 5, transcription factor 1, POU domain (Pou5f1, Mus musculus, UniProt P20263, residues 131-289)
UniProt P20263, sequence (131-289, looked up): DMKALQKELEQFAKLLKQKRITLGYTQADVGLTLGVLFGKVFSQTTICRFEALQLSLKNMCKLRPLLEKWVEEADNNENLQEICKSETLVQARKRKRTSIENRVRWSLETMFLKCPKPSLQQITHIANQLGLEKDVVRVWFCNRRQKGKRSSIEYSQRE
Sequence	relative binding energy [ln ratio]
GAGTCGTCTCGTCAGCACATGTGGATCCGTAGAGCACTCAGGTC	0.496
GAGTCGTCTCGTCAGCACCAGGTAATCCGTAGAGCACTCAGGTC	0.992
GAGTCGTCTCGTCAGCACATGCCATACCGTAGAGCACTCAGGTC	0.49

Block 2 — method: protein binding microarray; form: double-stranded DNA, one strand shown; medium: in vitro; concentration: not given; relative to: not given; reading: higher = stronger binding
Target: Histone acetyltransferase KAT6A, winged helix 1, GST fusion (KAT6A, Homo sapiens, UniProt Q92794, residues 1-85)
Notes: 8-mer, flanks averaged, mean of 2 arrays, mostly near background
Construct (chain): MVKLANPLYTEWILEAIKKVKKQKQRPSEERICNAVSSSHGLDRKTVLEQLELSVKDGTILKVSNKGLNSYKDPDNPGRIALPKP
Sequence	E-score
TGTGGCAA	-0.0429
AAATCGGG	-0.00522
GGAATCGA	0.0145
ACGGTGTC	0.228
CAGGTGGA	-0.232

Block 3 — method: aptamer microarray, sandwich; form: DNA with 2'F-ANA; medium: in vitro; concentration: 200 nM; with: Cy3 exosite-II aptamer, 400 nM; reading: higher = stronger binding
Target: Prothrombin, mature alpha-thrombin (F2, Homo sapiens, UniProt P00734)
Notes: whole 15-mer aptamer, many near background
Sequence	mean fluorescence intensity
GGTTGGTGTGGTTGG (2'F-ANA at 1 4 5 6 7 10 11 12 13 15)	46.8 a.u.
GGTTGGTGTGGTTGG (2'F-ANA at 1 5 6 7 8 10 12 14 15)	54.9 a.u.
GGTTGGTGTGGTTGG (2'F-ANA at 1 2 6 10 12 14 15)	64.9 a.u.
GGTTGGTGTGGTTGG (2'F-ANA at 2 4 8 10 12 13 14 15)	59.7 a.u.

Mixed results
Molecule	target	assay	system	setting	scale	endpoint	result
PhoQ, residues 284 288 289 292 302 303 SIHLQL	PhoP, residues 12 14 15 18 19 VQGLL (Escherichia coli, UniProt P23836)	Sort-seq, item: YFP reporter	E. coli	PhoQ-PhoP variant library, with: 10 µM Mg2+	relative to: high Mg2+ state, higher = stronger signaling	fold induction	19

A few entries again (block 2):
Sequence	E-score
CAGGTGGA	-0.232
GGAATCGA	0.0145
